{"data": "Measurements collected from several papers", "note": "Compare with care: the assays were run in different laboratories. ± gives the spread as reported."}
{"Compound": "CC1=C2C(=O)C3=CC(C)(C)N=C4CCCC2(CC(C)(C)N1)C34O (single isomer, unassigned; (-))", "test": "acetic acid-induced writhing", "test system": "mouse", "setting": "intraperitoneal, 0.2 mg/kg, 0.5 h, writhes counted over 30 min", "inhibition": "65.3 ± 1.5%"}
{"Compound": "Clc1ccc(NCc2cn(-c3ccccc3)nc2-c2ccc(OCc3ccccc3)cc2)cc1", "test": "acetic acid-induced writhing", "test system": "mouse", "setting": "oral, 20 mg/kg, 30 min pretreatment, writhes counted over 20 min, together with: 0.6% acetic acid ip", "inhibition": "71.9 ± 2.33%"}
{"Compound": "C=CC(=O)Nc1ccc(F)c(-c2ncnc3[nH]cc(C(=O)OCC)c23)c1", "test": "measured: pSTAT5 second wave", "test system": "CD4 T-cell blasts, mouse", "setting": "15 nM, together with: IL-2", "inhibition": "> 50%"}
{"Compound": "COc1c2c(cc3oc(C)cc(=O)c13)O[C@H](C(C)(C)O[C@@H]1O[C@H](CO)[C@@H](O)[C@H](O)[C@H]1O)C2", "test": "ear edema weight", "test system": "mouse, xylene ear edema", "setting": "oral, 1 mg/kg", "scale": "baseline: vehicle", "inhibition": "5%"}
{"Compound": "C=CC(=O)N1C[C@H](C)N(c2nc(OC[C@@]34CCCN3C[C@H](F)C4)nc3c(F)c(-c4ccc(F)c5sc(N)c(C#N)c45)c(C(F)(F)F)cc23)C[C@H]1C", "test": "measured: phospho-ERK", "test system": "mouse MIA PaCa-2 Matrigel plug", "setting": "30 mg/kg single dose, 2 h", "inhibition": "40%"}
{"Compound": "Cc1cc(NC(=O)[C@H](O)c2cc(F)cc(F)c2)ccc1-c1cnc(N)c(C(=O)NC(C)C)c1", "test": "measured: phospho-PERK", "test system": "mouse, pancreas", "setting": "oral, 30 mg/kg, early after dose", "inhibition": "~90%"}
{"Compound": "Nc1nc2cc(CC[C@H]3C[C@@H](n4ccc5c(N)ncnc54)[C@H](O)[C@@H]3O)ccc2cc1Br", "test": "PRMT5-dependent methylation, measured: SmD1/3-Me2", "test system": "mouse NCI-H1048 xenograft, tumour", "setting": "10 mg/kg daily, 6 days", "inhibition": "93.7%"}
{"Compound": "COC(=O)C1OC(Oc2c(-c3ccccc3)oc3cc(O)c(O)c(O)c3c2=O)C(O)C(O)C1O (stereo not shown)", "test": "paw oedema", "test system": "mouse, carrageenan-induced paw oedema", "setting": "oral, 5 mg/kg, 0 h", "scale": "baseline: 10 h", "inhibition": "42.5%"}
{"Compound": "COc1cccc(NCc2cn(-c3ccccc3)nc2-c2ccc(OCc3ccccc3)cc2)c1", "test": "acetic acid-induced writhing", "test system": "mouse", "setting": "oral, 20 mg/kg, 30 min pretreatment, writhes counted over 20 min, together with: 0.6% acetic acid ip", "inhibition": "67.9 ± 2.33%"}
{"Compound": "COc1c2c(cc3oc(CO)cc(=O)c13)O[C@H](C(C)(C)O)C2", "test": "ear edema weight", "test system": "mouse, xylene ear edema", "setting": "oral, 2 mg/kg", "scale": "baseline: vehicle", "inhibition": "48%"}
{"Compound": "Fc1ccc(NCc2cn(-c3ccccc3)nc2-c2ccc(OCc3ccccc3)cc2)cc1", "test": "acetic acid-induced writhing", "test system": "mouse", "setting": "oral, 20 mg/kg, 30 min pretreatment, writhes counted over 20 min, together with: 0.6% acetic acid ip", "inhibition": "49.2 ± 1.87%"}
{"Compound": "COc1c2c(cc3oc(COC4OC(CO)C(O)C(O)C4O)cc(=O)c13)OC(C(C)(C)O)C2 (stereo not shown)", "test": "ear edema weight", "test system": "mouse, xylene ear edema", "setting": "oral, 4 mg/kg", "scale": "baseline: vehicle", "inhibition": "38%"}
{"Compound": "Fc1ccc(NCc2cn(-c3ccccc3)nc2-c2ccc(OCc3ccccc3)cc2)cc1Cl", "test": "acetic acid-induced writhing", "test system": "mouse", "setting": "oral, 20 mg/kg, 30 min pretreatment, writhes counted over 20 min, together with: 0.6% acetic acid ip", "inhibition": "72.5 ± 1.22%"}
{"Compound": "CC(C)c1cnc(-c2cc(Cl)ccc2F)cc1Nc1ccncc1C(=O)NC(CO)CO", "test": "measured: pSMAD2", "test system": "4T1 tumour-bearing mouse, tumour", "setting": "100 mg/kg twice daily, 0 to 8 h average", "scale": "baseline: vehicle", "inhibition": "82%"}
{"Compound": "NS(=O)(=O)c1ccc(-n2cc(CNc3ccccc3)c(-c3ccc(OCc4ccccc4)cc3)n2)cc1", "test": "acetic acid-induced writhing", "test system": "mouse", "setting": "oral, 20 mg/kg, 30 min pretreatment, writhes counted over 20 min, together with: 0.6% acetic acid ip", "inhibition": "57.3 ± 1.87%"}
{"Compound": "CC(=O)C12NC(C)(C)CC1(C)C(=O)C1=C2c2c(c3c4n2C(C)(C)CC2=C4C4(CC(C)(C)NC(C)(C4)C2=O)CC3(C)C)C(=O)C(C)(C)N1 (single isomer, unassigned; (-))", "test": "acetic acid-induced writhing", "test system": "mouse", "setting": "intraperitoneal, 0.04 mg/kg, 0.5 h, writhes counted over 30 min", "inhibition": "30.8 ± 2.3%"}
{"note": "Repeated from above:"}
{"Compound": "COc1c2c(cc3oc(CO)cc(=O)c13)O[C@H](C(C)(C)O)C2", "test": "ear edema weight", "test system": "mouse, xylene ear edema", "setting": "oral, 2 mg/kg", "scale": "baseline: vehicle", "inhibition": "48%"}
{"Compound": "Fc1ccc(NCc2cn(-c3ccccc3)nc2-c2ccc(OCc3ccccc3)cc2)cc1Cl", "test": "acetic acid-induced writhing", "test system": "mouse", "setting": "oral, 20 mg/kg, 30 min pretreatment, writhes counted over 20 min, together with: 0.6% acetic acid ip", "inhibition": "72.5 ± 1.22%"}
